Measurements pooled from the literature.
Compare with care: the assays were run in different laboratories. ± marks the error that the study gave.
B1: enzyme Q449A (Limosilactobacillus reuteri, UniProt Q8GP32); chain SADTNIENNDSSTVQVTTGDNDIAVKSVTLGSGQVSAASDTTIRTSANANSASSAANTQNSNSQVASSAAITSSTSSAASSNNTDSKAAQENTNTAKNDDTQKAAPANESSEAKNEPAVNVNDSSAAKNDDQQSSKKNTTAKLNKDAENVVKKAGIDPNSLTDDQIKALNKMNFSKAAKSGTQMTYNDFQKIADTLIKQDGRYTVPFFKASEIKNMPAATTKDAQTNTIEPLDVWDSWPVQDVRTGQVANWNGYQLVIAMMGIPNQNDNHIYLLYNKYGDNELSHWKNVGPIFGYNSTAVSQEWSGSAVLNSDNSIQLFYTRVDTSDNNTNHQKIASATLYLTDNNGNVSLAQVANDHIVFEGDGYYYQTYDQWKATNKGADNIAMRDAHVIEDDNGDRYLVFEASTGLENYAGEDQIYNWLNYGGDDAFNIKSLFRILSNDDIKSRATWANAAIGILKLNKDEKNPKVAELYSPLISAPMVSDEIERPNVVKLGNKYYLFAATRLNRGSNDDAWMNANYAVGDNVAMVGYVADSLTGSYKPLNDSGVVLTASVPANWRTATYSYYAVPVAGKDDQVLVTSYMTNRNGVAGKGMDSTWAPSFLLQINPDNTTTVLAKMTNQGDWIWDDSSENLDMIGDLDSAALPGERDKPVDWDLIGYGLKP
UniProt J7SZ64, sequence (whole entry, looked up): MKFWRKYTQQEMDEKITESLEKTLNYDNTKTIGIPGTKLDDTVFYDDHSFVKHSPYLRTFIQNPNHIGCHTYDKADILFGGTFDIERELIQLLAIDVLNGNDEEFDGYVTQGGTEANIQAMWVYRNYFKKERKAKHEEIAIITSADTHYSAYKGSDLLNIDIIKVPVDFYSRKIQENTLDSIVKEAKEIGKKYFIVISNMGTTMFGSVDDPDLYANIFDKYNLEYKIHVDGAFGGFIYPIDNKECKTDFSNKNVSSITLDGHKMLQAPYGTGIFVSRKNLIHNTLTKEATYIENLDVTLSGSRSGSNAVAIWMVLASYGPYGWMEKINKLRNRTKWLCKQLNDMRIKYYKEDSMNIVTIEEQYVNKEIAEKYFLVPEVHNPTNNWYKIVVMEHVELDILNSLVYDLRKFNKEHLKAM

`COc1cccc2c1C(=O)c1c(O)c3c(c(O)c1C2=O)C[C@@](O)(C(=O)CO)C[C@@H]3O[C@H]1C[C@H](NC(=O)[C@H](CC(C)C)NC(=O)[C@H](C)NC(=O)[C@H](CC(C)C)NC(=O)CCNC(=O)CCC(=O)O)[C@H](O)[C@H](C)O1` has a Cmax of 811 µM (mouse, E0771 tumour-bearing, kidney; intravenous, 92 µmol/kg).
`CCN1C(=CC=CC=CC2=[N+](CCCCCC(=O)NCCCC[C@H](NC(=O)CN3CCN(CC(=O)O)CCN(CC(=O)O)CCN(CC(=O)O)CC3)C(=O)NCC(=O)NCC(=O)N[C@@H](Cc3ccc(O)cc3)C(=O)NCC(=O)N[C@H]3CSSC[C@@H]4NC(=O)CNC(=O)[C@H](C)NC(=O)[C@H](CC(C)C)NC(=O)[C@@H]5CSSC[C@@H](C(=O)NCC(N)=O)NC(=O)[C@H](Cc6ccccc6)NC(=O)CNC(=O)[C@H](CC(N)=O)NC(=O)[C@@H]6CCCN6C(=O)CNC(=O)[C@H](CSSC[C@H](NC(=O)[C@H](CO)NC(=O)[C@H]([C@@H](C)O)NC(=O)[C@@H]6CCCN6C(=O)[C@H](C)NC(=O)[C@H](Cc6c[nH]c7ccccc67)NC(=O)[C@H](CC(=O)O)NC(=O)CNC(=O)[C@H](CCCNC(=N)N)NC(=O)CNC(=O)[C@H](CCC(N)=O)NC(=O)[C@@H]6CCCN6C3=O)C(=O)N[C@@H](CO)C(=O)N[C@@H](CCC(N)=O)C(=O)N[C@@H](CC(=O)O)C(=O)N[C@@H](CO)C(=O)N[C@@H](CC(=O)O)C(=O)N5)NC(=O)[C@H](C(C)C)NC4=O)c3ccc4c(S(=O)(=O)[O-])cc(S(=O)(=O)O)cc4c3C2(C)C)C(C)(C)c2c1ccc1c(S(=O)(=O)O)cc(S(=O)(=O)O)cc21` (single isomer, unassigned) [copper-64 labelled] gave a tissue uptake of 78.4 ± 13.9 %ID/g (nude mouse, kidney; intravenous, 100 µCi, 1 h).
`melittin` has a partitioning enthalpy of -10.4 kcal/mol (isothermal titration calorimetry; POPC/POPG LUVs 75:25%; 100 µM, pH 7.0, 40 °C).
`N=C(N)NCCC[C@@H]1NC(=O)[C@H](CCCCNC(=O)[C@H](CC(=O)O)NC(=O)[C@H](CC(=O)O)NC(=O)[C@H](CC(=O)O)NC(=O)CC[C@H](NC(=O)CCOCCOCCOCCOCCNC(=O)c2ccc(NN)nc2)C(=O)N[C@@H](CC(=O)O)C(=O)N[C@@H](CC(=O)O)C(=O)N[C@@H](CC(=O)O)C(=O)NCCCC[C@@H]2NC(=O)[C@@H](Cc3ccccc3)NC(=O)[C@H](CC(=O)O)NC(=O)CNC(=O)[C@H](CCCNC(=N)N)NC2=O)NC(=O)[C@@H](Cc2ccccc2)NC(=O)[C@H](CC(=O)O)NC(=O)CNC1=O` [technetium-99m labelled] gave a tissue uptake of 1.23 ± 0.38 %ID/g (γ-counting; female athymic nude mice, U-87 MG xenograft, blood; intravenous, 0.5 h).
With `COc1cccc2c1C(=O)c1c(O)c3c(c(O)c1C2=O)C[C@@](O)(C(=O)CO)C[C@@H]3O[C@H]1C[C@H](NC(=O)[C@@H]2CCCN2C(=O)CNC(=O)[C@H](CC(C)C)NC(=O)[C@H](C)NC(=O)CP(=O)(O)O)[C@H](O)[C@H](C)O1` the terminal half-life was 16.8 h (mouse, E0771 tumour-bearing, liver; intravenous, 92 µmol/kg).
The CC50 of `CC(C)C[C@H](NC(=O)[C@H](Cc1c[nH]cn1)NC(=O)[C@H](Cc1ccc(O)cc1)NC(=O)[C@H](CCCNC(=N)N)NC(=O)[C@H](Cc1ccc(O)cc1)NC(=O)[C@H](CCCCN)NC(=O)[C@@H](N)CCCCN)C(=O)N[C@@H](CCCCN)C(=O)N1CCC[C@H]1C(=O)N[C@@H](Cc1ccccc1)C(=O)NCCCC[C@H](NC(=O)[C@H](Cc1ccccc1)NC(=O)[C@@H]1CCCN1C(=O)[C@H](CCCCN)NC(=O)[C@H](CC(C)C)NC(=O)[C@H](Cc1c[nH]cn1)NC(=O)[C@H](Cc1ccc(O)cc1)NC(=O)[C@H](CCCNC(=N)N)NC(=O)[C@H](Cc1ccc(O)cc1)NC(=O)[C@H](CCCCN)NC(=O)[C@H](CCCCN)NC(=O)c1ccc(CNC(=NC(=O)c2ccccc2)Nc2ccc(Br)cc2)cc1)C(N)=O` is reported as 550 ± 0.011 µM (Swiss mouse peritoneal macrophages; cytotoxicity, MTT).
The Vmax of `aromatic amino acid decarboxylase (Clostridium sporogenes, UniProt J7SZ64)` is reported as 0.6 µmol/min/mg (N[C@@H](Cc1c[nH]c2c(Cl)cccc12)C(=O)O; steady-state kinetics; pH 7, 37 °C, not purified, added: PLP 40 µM).
`CC[C@H](C)[C@H](NC(=O)[C@H](CCCCN)NC(=O)[C@@H](NC(=O)[C@H](CCC(N)=O)NC(=O)[C@H](CCCNC(=N)N)NC(=O)[C@@H](N)CSSC[C@H](NC(C)=O)C(=O)NCCN(CC(=O)NCCN(CC(=O)NCCN(CC(=O)NCCN(CC(=O)NCCN(CC(=O)NCCN(CC(=O)NCCN(CC(=O)NCCN(CC(=O)NCCN(CC(=O)NCCN(CC(=O)NCCN(CC(=O)NCCN(CC(=O)NCCN(CC(=O)NCCN(CC(=O)NCCN(CC(=O)NCCN(CC(N)=O)C(=O)Cn1cc(C)c(=O)[nH]c1=O)C(=O)Cn1ccc(N)nc1=O)C(=O)Cn1cc(C)c(=O)[nH]c1=O)C(=O)Cn1cnc2c(N)ncnc21)C(=O)Cn1cnc2c(=O)[nH]c(N)nc21)C(=O)Cn1cnc2c(N)ncnc21)C(=O)Cn1ccc(N)nc1=O)C(=O)Cn1cc(C)c(=O)[nH]c1=O)C(=O)Cn1ccc(N)nc1=O)C(=O)Cn1cnc2c(=O)[nH]c(N)nc21)C(=O)Cn1cnc2c(=O)[nH]c(N)nc21)C(=O)Cn1cnc2c(N)ncnc21)C(=O)Cn1ccc(N)nc1=O)C(=O)Cn1ccc(N)nc1=O)C(=O)Cn1ccc(N)nc1=O)C(=O)Cn1cc(C)c(=O)[nH]c1=O)[C@@H](C)CC)C(=O)N[C@@H](Cc1c[nH]c2ccccc12)C(=O)N[C@@H](Cc1ccccc1)C(=O)N[C@@H](CCC(N)=O)C(=O)N[C@@H](CC(N)=O)C(=O)N[C@@H](CCCNC(=N)N)C(=O)N[C@@H](CCCNC(=N)N)C(=O)N[C@@H](CCSC)C(=O)N[C@@H](CCCCN)C(=O)N[C@@H](Cc1c[nH]c2ccccc12)C(=O)N[C@@H](CCCCN)C(=O)N[C@@H](CCCCN)C(=O)O` has a fluorescence-positive cells of > 90% (CEM; cellular uptake, flow cytometry; 200 nM, 1 min).
`B1 (enzyme Q449A)` has a K0.5 of 20000 µM (OC[C@H]1O[C@@](CO)(O[C@H]2O[C@H](CO)[C@@H](O)[C@H](O)[C@H]2O)[C@@H](O)[C@@H]1O; steady-state kinetics; pH 5.5, 50 °C, apparent).
`N=C(N)NCCC[C@@H]1NC(=O)[C@H](CCCCNC(=O)CNC(=O)CNC(=O)CNC(=O)CC[C@H](NC(=O)CCOCCOCCOCCOCCNC(=O)c2ccc(NN)nc2)C(=O)NCC(=O)NCC(=O)NCC(=O)NCCCC[C@@H]2NC(=O)[C@@H](Cc3ccccc3)NC(=O)[C@H](CC(=O)O)NC(=O)CNC(=O)[C@H](CCCNC(=N)N)NC2=O)NC(=O)[C@@H](Cc2ccccc2)NC(=O)[C@H](CC(=O)O)NC(=O)CNC1=O` [technetium-99m labelled] has a tissue uptake of 2.77 ± 0.35 %ID/g (γ-counting; female athymic nude mice, U-87 MG xenograft, liver; intravenous, 1 h).

Excerpt of the above:
The Vmax of `aromatic amino acid decarboxylase (Clostridium sporogenes, UniProt J7SZ64)` is reported as 0.6 µmol/min/mg (N[C@@H](Cc1c[nH]c2c(Cl)cccc12)C(=O)O; steady-state kinetics; pH 7, 37 °C, not purified, added: PLP 40 µM).
